Assay results of several laboratories.
A part holds a random share of what one study measured.
UniProt Q32MK0, sequence (whole entry, looked up): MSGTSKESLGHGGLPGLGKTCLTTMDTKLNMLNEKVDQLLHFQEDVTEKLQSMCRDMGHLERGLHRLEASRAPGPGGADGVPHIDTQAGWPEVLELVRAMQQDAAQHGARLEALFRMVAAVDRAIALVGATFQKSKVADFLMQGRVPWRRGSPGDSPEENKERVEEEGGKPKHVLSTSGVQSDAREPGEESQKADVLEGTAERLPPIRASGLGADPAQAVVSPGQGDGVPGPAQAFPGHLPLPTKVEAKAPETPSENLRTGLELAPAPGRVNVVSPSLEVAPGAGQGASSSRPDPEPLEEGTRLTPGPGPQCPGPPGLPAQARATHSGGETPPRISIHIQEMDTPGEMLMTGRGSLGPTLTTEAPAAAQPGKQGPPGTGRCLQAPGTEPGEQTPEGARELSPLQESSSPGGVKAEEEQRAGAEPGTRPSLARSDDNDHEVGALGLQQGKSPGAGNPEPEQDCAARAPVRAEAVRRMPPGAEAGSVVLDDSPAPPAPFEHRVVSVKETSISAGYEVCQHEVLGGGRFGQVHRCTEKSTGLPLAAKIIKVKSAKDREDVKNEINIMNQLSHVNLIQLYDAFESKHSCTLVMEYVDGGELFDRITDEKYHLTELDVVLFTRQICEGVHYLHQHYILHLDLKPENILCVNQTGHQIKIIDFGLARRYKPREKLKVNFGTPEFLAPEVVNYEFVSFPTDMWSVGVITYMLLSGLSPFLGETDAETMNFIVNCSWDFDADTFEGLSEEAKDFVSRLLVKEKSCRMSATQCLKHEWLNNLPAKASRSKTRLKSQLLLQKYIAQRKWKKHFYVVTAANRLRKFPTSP
UniProt P51956, sequence (whole entry, looked up): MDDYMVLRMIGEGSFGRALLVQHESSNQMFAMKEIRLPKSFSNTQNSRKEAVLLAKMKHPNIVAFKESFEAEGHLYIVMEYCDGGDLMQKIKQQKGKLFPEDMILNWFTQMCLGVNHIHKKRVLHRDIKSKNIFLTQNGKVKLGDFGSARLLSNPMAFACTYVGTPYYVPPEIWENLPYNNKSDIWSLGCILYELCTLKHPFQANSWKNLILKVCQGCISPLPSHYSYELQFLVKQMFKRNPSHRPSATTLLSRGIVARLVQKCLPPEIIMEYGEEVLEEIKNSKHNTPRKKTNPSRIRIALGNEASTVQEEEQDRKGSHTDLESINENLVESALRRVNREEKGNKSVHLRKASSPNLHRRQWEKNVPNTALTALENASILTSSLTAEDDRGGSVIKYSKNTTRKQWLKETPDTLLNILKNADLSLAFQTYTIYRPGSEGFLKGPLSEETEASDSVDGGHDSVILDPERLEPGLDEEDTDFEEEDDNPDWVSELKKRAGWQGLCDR
UniProt Q16566, sequence (whole entry, looked up): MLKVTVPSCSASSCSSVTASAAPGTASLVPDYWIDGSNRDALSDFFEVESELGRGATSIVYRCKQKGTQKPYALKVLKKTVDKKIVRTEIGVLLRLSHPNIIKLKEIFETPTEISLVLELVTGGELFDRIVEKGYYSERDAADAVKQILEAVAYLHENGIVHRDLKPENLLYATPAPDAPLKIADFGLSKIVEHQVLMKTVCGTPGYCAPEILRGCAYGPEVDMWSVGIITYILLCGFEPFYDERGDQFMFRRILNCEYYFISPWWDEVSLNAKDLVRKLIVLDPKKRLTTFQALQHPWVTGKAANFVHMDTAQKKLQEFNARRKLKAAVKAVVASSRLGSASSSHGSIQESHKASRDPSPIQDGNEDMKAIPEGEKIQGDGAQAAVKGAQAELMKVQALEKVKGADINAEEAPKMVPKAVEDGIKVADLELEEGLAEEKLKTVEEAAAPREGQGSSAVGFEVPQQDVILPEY
UniProt Q96L34, sequence (whole entry, looked up): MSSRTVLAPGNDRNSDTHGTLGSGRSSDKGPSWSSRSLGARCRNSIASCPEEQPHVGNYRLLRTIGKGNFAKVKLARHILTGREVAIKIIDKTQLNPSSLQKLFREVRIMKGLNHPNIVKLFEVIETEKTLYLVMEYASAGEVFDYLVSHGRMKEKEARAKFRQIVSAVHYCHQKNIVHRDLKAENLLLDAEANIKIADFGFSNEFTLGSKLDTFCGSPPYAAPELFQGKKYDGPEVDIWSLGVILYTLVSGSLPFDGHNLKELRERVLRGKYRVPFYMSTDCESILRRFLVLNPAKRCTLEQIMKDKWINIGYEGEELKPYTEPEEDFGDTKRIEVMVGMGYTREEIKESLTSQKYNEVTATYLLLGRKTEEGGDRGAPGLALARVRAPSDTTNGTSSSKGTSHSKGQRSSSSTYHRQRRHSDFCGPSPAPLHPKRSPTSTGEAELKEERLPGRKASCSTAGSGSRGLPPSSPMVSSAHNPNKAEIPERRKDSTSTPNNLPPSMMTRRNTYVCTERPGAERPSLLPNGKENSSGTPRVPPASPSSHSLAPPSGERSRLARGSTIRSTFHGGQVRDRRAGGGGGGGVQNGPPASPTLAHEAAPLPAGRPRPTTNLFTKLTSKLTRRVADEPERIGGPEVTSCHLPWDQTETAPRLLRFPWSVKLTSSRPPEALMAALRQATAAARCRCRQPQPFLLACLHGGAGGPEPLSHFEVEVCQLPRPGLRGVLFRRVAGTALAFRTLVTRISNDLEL
UniProt Q8N4C8, sequence (whole entry, looked up): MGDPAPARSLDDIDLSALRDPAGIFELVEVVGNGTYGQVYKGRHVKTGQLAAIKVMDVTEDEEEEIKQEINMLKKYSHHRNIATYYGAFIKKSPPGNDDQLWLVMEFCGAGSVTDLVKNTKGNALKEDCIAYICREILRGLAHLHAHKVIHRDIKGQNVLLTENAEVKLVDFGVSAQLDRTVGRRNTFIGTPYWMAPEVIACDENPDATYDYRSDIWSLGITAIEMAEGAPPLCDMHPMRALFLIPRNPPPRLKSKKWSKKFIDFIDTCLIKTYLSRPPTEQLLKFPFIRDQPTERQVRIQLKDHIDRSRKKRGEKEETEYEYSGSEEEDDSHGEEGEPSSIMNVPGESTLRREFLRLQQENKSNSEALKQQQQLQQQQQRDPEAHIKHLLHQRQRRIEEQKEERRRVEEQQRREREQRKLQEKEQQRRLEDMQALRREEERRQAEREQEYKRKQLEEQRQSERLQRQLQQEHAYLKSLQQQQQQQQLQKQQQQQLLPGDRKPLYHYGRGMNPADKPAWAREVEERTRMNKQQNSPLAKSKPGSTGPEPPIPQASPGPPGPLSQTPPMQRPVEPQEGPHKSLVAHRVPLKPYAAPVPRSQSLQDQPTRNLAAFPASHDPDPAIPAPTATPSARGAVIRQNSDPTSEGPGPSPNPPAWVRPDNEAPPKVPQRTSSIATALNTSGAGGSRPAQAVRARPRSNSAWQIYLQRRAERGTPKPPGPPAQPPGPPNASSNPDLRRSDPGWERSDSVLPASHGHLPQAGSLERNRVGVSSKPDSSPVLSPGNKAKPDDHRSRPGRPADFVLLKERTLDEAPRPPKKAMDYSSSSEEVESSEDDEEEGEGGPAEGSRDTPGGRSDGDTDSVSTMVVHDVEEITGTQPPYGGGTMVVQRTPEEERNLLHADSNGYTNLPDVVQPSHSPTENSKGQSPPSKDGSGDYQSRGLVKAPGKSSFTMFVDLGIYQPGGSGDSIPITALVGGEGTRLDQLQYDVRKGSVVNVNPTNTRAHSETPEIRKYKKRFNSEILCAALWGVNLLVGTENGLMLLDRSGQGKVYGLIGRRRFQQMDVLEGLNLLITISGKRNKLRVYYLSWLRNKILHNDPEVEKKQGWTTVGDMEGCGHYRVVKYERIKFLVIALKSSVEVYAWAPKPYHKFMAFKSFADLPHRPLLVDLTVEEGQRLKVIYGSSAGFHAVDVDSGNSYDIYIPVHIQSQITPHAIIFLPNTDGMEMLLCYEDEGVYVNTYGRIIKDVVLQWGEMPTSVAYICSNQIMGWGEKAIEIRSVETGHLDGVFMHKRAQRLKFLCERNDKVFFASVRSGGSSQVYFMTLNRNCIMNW
UniProt Q15759, sequence (whole entry, looked up): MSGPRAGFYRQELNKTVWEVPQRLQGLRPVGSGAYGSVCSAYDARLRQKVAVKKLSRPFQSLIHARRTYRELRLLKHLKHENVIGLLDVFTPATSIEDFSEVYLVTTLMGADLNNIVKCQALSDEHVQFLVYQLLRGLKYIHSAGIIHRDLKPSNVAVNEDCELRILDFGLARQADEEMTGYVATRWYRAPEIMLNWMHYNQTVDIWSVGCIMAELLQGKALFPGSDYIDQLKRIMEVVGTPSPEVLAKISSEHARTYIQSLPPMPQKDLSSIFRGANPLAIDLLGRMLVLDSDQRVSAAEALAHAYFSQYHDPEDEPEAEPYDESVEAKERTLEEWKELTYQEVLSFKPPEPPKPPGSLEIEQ
UniProt P06493, sequence (whole entry, looked up): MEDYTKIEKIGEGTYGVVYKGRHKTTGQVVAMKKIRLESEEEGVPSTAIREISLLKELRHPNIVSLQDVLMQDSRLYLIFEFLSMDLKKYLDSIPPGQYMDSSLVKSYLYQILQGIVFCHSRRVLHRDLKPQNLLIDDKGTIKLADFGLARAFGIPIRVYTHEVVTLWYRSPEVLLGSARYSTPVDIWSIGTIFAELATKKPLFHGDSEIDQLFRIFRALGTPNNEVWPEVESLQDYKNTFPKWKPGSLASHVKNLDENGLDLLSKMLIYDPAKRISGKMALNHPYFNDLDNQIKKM

Sample 1
Compound: COCCOc1nc(-c2ccc(Cl)nc2)nc2c1CN(C(=O)c1ncn3ccccc13)CC2
Read-out: cell-free assay
Method: competition with immobilised ligand
Tested at: 0.1 µM
| target | remaining binding [%] |
| --- | --- |
| WNK1 (Homo sapiens, UniProt Q9H4A3) | 100 |
| MARK3 (Homo sapiens, UniProt P27448) | 100 |
| IRAK4 (Homo sapiens, UniProt Q9NWZ3) | 100 |
| EPHB4 (Homo sapiens, UniProt P54760) | 100 |
| FYN (Homo sapiens, UniProt P06241) | 100 |
| STK17A (Homo sapiens, UniProt Q9UEE5) | 79 |
| MYLK3 (Homo sapiens, UniProt Q32MK0) | 83 |

Sample 2
Target: Calcium/calmodulin-dependent protein kinase type II subunit alpha (CAMK2A, Homo sapiens, UniProt Q9UQM7)
UniProt Q9UQM7, sequence (whole entry, looked up): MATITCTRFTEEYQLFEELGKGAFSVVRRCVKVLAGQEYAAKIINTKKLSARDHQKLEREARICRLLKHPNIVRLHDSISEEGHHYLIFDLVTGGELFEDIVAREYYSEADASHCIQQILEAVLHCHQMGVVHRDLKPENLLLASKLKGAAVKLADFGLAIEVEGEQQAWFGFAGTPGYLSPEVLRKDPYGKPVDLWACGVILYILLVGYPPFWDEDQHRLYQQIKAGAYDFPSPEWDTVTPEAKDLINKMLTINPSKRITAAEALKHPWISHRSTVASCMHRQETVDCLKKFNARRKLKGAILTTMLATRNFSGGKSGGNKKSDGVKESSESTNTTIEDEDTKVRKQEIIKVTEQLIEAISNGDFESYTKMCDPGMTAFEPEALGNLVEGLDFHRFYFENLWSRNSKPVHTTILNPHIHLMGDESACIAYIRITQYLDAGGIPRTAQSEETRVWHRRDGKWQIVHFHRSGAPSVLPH
Read-out: enzyme activity
Action: inhibitor
Tested at: 10 µM
| Compound | inhibition |
| --- | --- |
| O=C(O)Cc1c[nH]c2ccccc12 | 12% |
| COc1cc2nc(N3CCN(C(=O)c4ccco4)CC3)nc(N)c2cc1OC | -7% |
| C=C(C)[C@@H]1CC[C@]2(C(=O)O)CC[C@]3(C)[C@H](CC[C@@H]4[C@@]5(C)CC[C@H](OC(=O)CC(C)(C)C(=O)O)C(C)(C)[C@@H]5CC[C@]43C)[C@@H]12 | -9% |
| C=C[C@H]1[C@H](O[C@@H]2O[C@H](CO)[C@@H](O)[C@H](O)[C@H]2OC(=O)c2c(O)cc(O)cc2-c2cccc(O)c2)OC=C2C(=O)OCC[C@H]21 | -2% |
| CC1=CC(=O)c2ccccc2C1=O | -11% |
| C=C1CC23C[C@H]4[C@@H]5[C@@]6(C)C[C@H](OC(C)=O)C[C@]57C(N4C6)[C@@]2(O)[C@H](OC(C)=O)[C@H]1[C@@H](O)[C@H]37 | -6% |
| CCCCCCCCCCCCCCCCCC(=O)NCc1ccccc1 | -90% |

Sample 3
SMILES: COc1cc2c(N3CCN(C(=O)Nc4ccc(OC(C)C)cc4)CC3)ncnc2cc1OCCCN1CCCCC1
Read-out: enzyme activity
Action: inhibitor
Tested at: 0.5 µM
Reference: control
| target | remaining activity [%] |
| --- | --- |
| NEK3 (Homo sapiens, UniProt P51956) | 103 |
| Cyclin-dependent kinase 9, with cyclin K (CDK9, Homo sapiens, UniProt P50750) | 107 |
| MAPK14 (Homo sapiens, UniProt Q16539) | 94.1 |
| MAP2K1 (Homo sapiens, UniProt Q02750) | 113 |
| PNCK (Homo sapiens, UniProt Q6P2M8) | 97.7 |
| Myosin-IIIb (MYO3B, Homo sapiens, UniProt Q8WXR4) | 88.5 |
| MARK2 (Homo sapiens, UniProt Q7KZI7) | 109 |
| PRKG2 (Homo sapiens, UniProt Q13237) | 105 |
| MARK4 (Homo sapiens, UniProt Q96L34) | 98.7 |
| CDC42BPB (Homo sapiens, UniProt Q9Y5S2) | 100 |
| PAK3 (Homo sapiens, UniProt O75914) | 105 |
| MAPK1 (Homo sapiens, UniProt P28482) | 87 |
| MET (Homo sapiens, UniProt P08581) | 92.5 |
| Cyclin-dependent kinase 1, with cyclin A (CDK1, Homo sapiens, UniProt P06493) | 96 |
| MAPK11 (Homo sapiens, UniProt Q15759) | 105 |
| PLK3 (Homo sapiens, UniProt Q9H4B4) | 99.3 |
| CLK4 (Homo sapiens, UniProt Q9HAZ1) | 88.7 |
| ROCK1 (Homo sapiens, UniProt Q13464) | 102 |
| MINK1 (Homo sapiens, UniProt Q8N4C8) | 99 |
| AKT2 (Homo sapiens, UniProt P31751) | 97.9 |
| TXK (Homo sapiens, UniProt P42681) | 105 |

Sample 4
Compound: O=C(Nc1ccccc1)Nc1cccc(Oc2ccc3nccn3n2)c1
Tested at: 1 µM
| target | assay | setting | scale | remaining binding [%] |
| --- | --- | --- | --- | --- |
| MYLK3 (Homo sapiens, UniProt Q32MK0) | competitive binding | MLCK |  | 93 |
| PIK3CB (Homo sapiens, UniProt P42338) | competitive binding panel |  | reference: vehicle | 100 |
| TNK1 (Homo sapiens, UniProt Q13470) | competitive binding panel |  | reference: vehicle | 77 |
| DYRK1A (Homo sapiens, UniProt Q13627) | competitive binding panel |  | reference: vehicle | 100 |
| CAMK4 (Homo sapiens, UniProt Q16566) | competitive binding panel |  | reference: vehicle | 93 |
| BRAF (Homo sapiens, UniProt P15056) | competitive binding panel |  | reference: vehicle | 76 |
| TGFBR1 (Homo sapiens, UniProt P36897) | competitive binding panel |  | reference: vehicle | 95 |
| PRKAA2 (Homo sapiens, UniProt P54646) | competitive binding | AMPK-alpha2 |  | 100 |

Excerpt of the above (sample 1):
| target | remaining binding [%] |
| --- | --- |
| WNK1 (Homo sapiens, UniProt Q9H4A3) | 100 |
| MARK3 (Homo sapiens, UniProt P27448) | 100 |
| IRAK4 (Homo sapiens, UniProt Q9NWZ3) | 100 |
| EPHB4 (Homo sapiens, UniProt P54760) | 100 |
| FYN (Homo sapiens, UniProt P06241) | 100 |
| STK17A (Homo sapiens, UniProt Q9UEE5) | 79 |
| MYLK3 (Homo sapiens, UniProt Q32MK0) | 83 |
